{"data": "Measurements gathered from unrelated publications", "note": "Parts stem from different laboratories: compare values within a part only."}
{"data": "Block 1", "target": "RNA binding protein fox-1 homolog 2, RRM domain, GST-SBP tag (RBFOX2, Homo sapiens, UniProt O43251-10, residues 100-194)", "method": "RNA Bind-n-Seq", "form": "RNA", "matrix": "in vitro", "concentration": "365 nM", "notes": "natural RNA segment, single round, ends assumed", "reference": "no-protein control", "direction": "higher = stronger binding", "shared flanks, not repeated": "GGGAGUUCUACAGUCCGACGAUC … UGGAAUUCUCGGGUGCCAA", "Residues (chain)": "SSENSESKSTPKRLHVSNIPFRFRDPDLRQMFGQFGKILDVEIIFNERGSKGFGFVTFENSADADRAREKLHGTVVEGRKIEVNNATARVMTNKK"}
{"Sequence": "UAGCCAGGACUGAGGGGCUGGCCCCAGGACGCUCUCAAGAAAUGGGGCUACUGUGGUUUAGACACUCCUGCUGCUCACAUUGAUGGGUGGCUAUUAAAGUUUCUUCACCC", "RBNS enrichment (R)": 0.239}
{"Sequence": "CAAAGUGGAAUAAAAGGUUUCUGAGCAUAAAGUAGCUCUUCAGUAGUUACAACCUAUUCUUUUGCAUACAUAGCCUUUCCUUCCCUGCAAAAAGUUAAGCCUGCUAAGUA", "RBNS enrichment (R)": 0.526}
{"Sequence": "GAACCUUAGCUGAAUAUAGUGUGUGUCUCAAGAGGAAGUCAGGGUACUAGCUCAGUGCUCAAUCUCCAGGUACUAUAUAUACAUUUGCCCGUUUUAUCUCUAAUGUGAAA", "RBNS enrichment (R)": 0.24}
{"Sequence": "CUCCUCUGUCCUUCUAUAACUAGGUUCCUGUUCUUACACACCUGUCCACCGAAUGUCACUCACUGAGCUGGGGUUGCUUUGUCUGUCUGAUUCAAAAUGUGUCCACACUU", "RBNS enrichment (R)": 0.267}
{"Sequence": "GAAAAAUGCAUGUGGAGAAUUAAACCCAAGUGUUUCGAAUUCAGCACACCCCCUCUCUGUCCUCAGACUGCAGUCCACACGUGCAACUUUUCUGUUUGCACGUGUUUUAU", "RBNS enrichment (R)": 1.64}
{"Sequence": "AAUAACUUCUGUGGGAGCUCAUCCCCCAAUCUUCGGUACUCUGCUUCCACAGUUGGAAAGUGGAACUACUUGUUGUUGAUAUCCCACAGCUAUCAGGUGCUAUGUAACUC", "RBNS enrichment (R)": 0.373}
{"Sequence": "CACCGAAAGAGCUCUUCUUUUCCCCUUAGAUGUACAGUAGGAGAGGUUGUUAAGUGUUCUCUCUUUGCUUCCGUUUACUGAGUUUUCAAAGGUUUGUGGGAAAAUGUAGG", "RBNS enrichment (R)": 1}
{"Sequence": "GAUACAUUAGUACCUGAUUUCAUAUCUUACAUAUUUAUUUGAGCUGAACAUUAGUUUGUAGUGUAACUAUUAGUAAAAAUAGAGAAACACAGCAUACUGUUCAUUAAUAG", "RBNS enrichment (R)": 0.345}
{"data": "Block 2", "target": "Histone acetyltransferase KAT6A, winged helix 2, GST fusion (KAT6A, Homo sapiens, UniProt Q92794, residues 85-181)", "method": "protein binding microarray", "form": "double-stranded DNA, one strand shown", "matrix": "in vitro", "concentration": "not given", "notes": "8-mer, flanks averaged, mean of 2 arrays, mostly near background", "reference": "not given", "direction": "higher = stronger binding", "Residues (chain)": "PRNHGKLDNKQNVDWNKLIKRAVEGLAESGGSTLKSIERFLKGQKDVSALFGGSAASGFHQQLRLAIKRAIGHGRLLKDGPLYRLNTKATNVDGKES"}
{"Sequence": "ACGTCCCC", "E-score": -0.16}
{"Sequence": "ACAAGACT", "E-score": -0.123}
{"Sequence": "ATTTTTAG", "E-score": 0.0789}
{"Sequence": "CACGAAGC", "E-score": -0.0438}
{"Sequence": "AACTCTCT", "E-score": -0.0688}
{"Sequence": "ACATCTTG", "E-score": -0.169}
{"data": "Block 3", "target": "Fragile X messenger ribonucleoprotein 1, C-terminal low-complexity region (Fmr1, Mus musculus, UniProt P35922)", "method": "RNA Bind-n-Seq", "form": "RNA", "matrix": "in vitro", "concentration": "200 nM", "notes": "whole 134-nt RNA, ends assumed", "added": "150 mM LiCl", "reference": "input library", "direction": "higher = stronger binding", "library": "7-deaza-guanosine replaces G", "shared flanks, not repeated": "GGGAGUUCUACAGUCCGACGAUC … UGGAAUUCUCGGGUGUCAAGG"}
{"Sequence": "ACCAUGCAGGUGGGCAUCUUUGGAAAGUGGGGCAAGGGGGGGAUAGGGAGGGGGGUAACACUUUGGGAACAGGUGGUCCCAGGUCGUUUC", "log2 enrichment": 1.28}
{"Sequence": "GCAGGAAGUAAAAACAAAUGGAAAUGCUUCGGAUAGGGGCAGGGGUGGGGGUUGCUAAGGAAAGGGUGGGAUGGGAGUGGGUAAAGAGUU", "log2 enrichment": 1.34}
{"Sequence": "UAGUGAUGGUCCUAAAUAGCAUGAGUGUCAGCUGGAGCGCCCGGAUCCAGAUUUUCUUAACCUUUUGCAAGCUCACAGCAAUUCUGAUAA", "log2 enrichment": -2.53}
{"Sequence": "AAGUCCUGUGCUACACAUCGUAUGUACCGAAUCGGGGAAAAGGGAAAAGGAAAAGGGAAAGUAUUAUGUUACGCCGUUCGGAUCUGCACU", "log2 enrichment": -0.125}
{"Sequence": "UGGGAGGUGGAUUUUGUUUAUUUUUUUAGCUCAUUUUCAGGGGUGGGAAUUUUUUUUUAAUAUGUGUCAUGAAUAAAGUUGUUUUUGAAA", "log2 enrichment": 1.11}
{"data": "Other studies, line by line"}
{"Molecule": "PhoQ, residues 284 288 289 292 302 303 AGGLSV", "target": "PhoP, residues 12 14 15 18 19 NQAHL (Escherichia coli, UniProt P23836)", "assay": "Sort-seq, measured: YFP reporter", "test system": "E. coli", "conditions": "PhoQ-PhoP variant library, added: 10 µM Mg2+", "scale": "reference: high Mg2+ state, higher = stronger signaling", "quantity": "fold induction", "result": 0.684}
{"note": "For quick reference, copied from above (block 2):"}
{"Sequence": "CACGAAGC", "E-score": -0.0438}
